Assay results of several laboratories.
Every numbered part comes from another study and shows a few of its results, in no order. Changes are numbered by the printed parent chain.

Series 1
Target: ABI1, truncated, D143A, DHFR fusion (Arabidopsis thaliana)
Technique: DHFR PCA, deep sequencing
Matrix: yeast
Notes: methotrexate growth selection, single substitutions
With: (+)-ABA 1.4 µM
Relative to: wild-type fitted maximum
Reading: higher = stronger binding
Starting sequence: PYL1, truncated, DHFR fusion (Arabidopsis thaliana); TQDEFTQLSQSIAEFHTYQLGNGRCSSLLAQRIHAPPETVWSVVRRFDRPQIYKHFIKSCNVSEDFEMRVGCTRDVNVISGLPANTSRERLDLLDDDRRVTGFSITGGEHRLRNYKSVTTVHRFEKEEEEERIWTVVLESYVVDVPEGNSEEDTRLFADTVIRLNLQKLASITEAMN
Change	relative binding score
D75S	56.8%
F124H	15.8%
A84M	34.8%
P83C	4.1%
E174Q	37.8%
L28C	30.6%
N177V	64.2%
H16Q	-2.03%
V137S	2.75%
L91G	-4.03%
F157P	17.3%
T106K	6.31%
G107K	-3.89%
N77E	78.7%
R45M	-12.7%
L112P	16.3%
D153F	-27.2%
D48R	-5.52%

Series 2
Target: Fragile X messenger ribonucleoprotein 1, C-terminal low-complexity region (Fmr1, Mus musculus, UniProt P35922)
Technique: RNA Bind-n-Seq
Molecule type: RNA
Matrix: in vitro
Concentration: 200 nM
Notes: whole 134-nt RNA, ends assumed
With: 150 mM LiCl
Relative to: input library
Reading: higher = stronger binding
Library: 7-deaza-guanosine replaces G
All sequences stand within: GGGAGUUCUACAGUCCGACGAUC … UGGAAUUCUCGGGUGUCAAGG
Sequence	log2 enrichment
UAAAUUUAGAGGAGGAUCUGAUGGAUAUGGCAGUGGACGUGGAUUUGGGGAUGGCUAUAAUGGGUAUGGAGGAGGACCUGGAGGUGGCAA	0.278
UGGCCCUCAAGCACUGCACAGAGGCCCUUCUUUCUCUUGGCCAGUACUCCAUGGCAGACUUCACAGGGCCUUGUCCAUUGGAAAUAGAAC	0.352
GCAGGAAGUAAAAACAAAUGGAAAUGCUUCGGAUAGUGGCGGGGGUGGGGGUUGCUAAGGAAAGGGUGGGAUGGGAGUGGGUAAAGAGUU	1.42
ACCAUGCAGGUGGGCAUCUUUGGGAAGUGGGGCAAGGGGGGGAUAGGGAGGGGGGUAACACUUUGGGAACAGGUGAAACCAGGUCGUUUC	1.16
UAACUUUAGAGGAGGAUCUGAUGGAUAUGGCAGUGGACGUGGAUUUGGGGAUGGCUAUAAUGGGUAUGGAGGAGGACCUGGAGGUGGCAC	1.04
CAAGUCCUGUGCUACACAUCGUAUGUACCGAAUCGGUUUGGUUUUUUUGGUUUGGAAAGUAUUAUGUUACGCCGUUCGGAUCUGCACUUC	-1.98
AAGUCCUGUGCUACACAUCGUAUGUACCGAAUCGGCCCCGGGGCCCCGGCCCCGGGAAAGUAUUAUGUUACGCCGUUCGGAUCUGCACUU	-2.96
AAGUCCUGUGCUACACAUCGUAUGUACCGAAUCGGGGAAAGGGGAAAGGGGUGGGGAAAGUAUUAUGUUACGCCGUUCGGAUCUGCACUU	0.00754
CUCAAGUCCUGUGCUACACAUCGUAUGUACCGAAUCGGGCGGGCGGGGCGGGGAAAGUAUUAUGUUACGCCGUUCGGAUCUGCACUUCCA	0.318
AGUCCUGUGCUACACAUCGUAUGUACCGAAUCGGUUUGGAAAAAAAGGAAAAAAAGGAAAGUAUUAUGUUACGCCGUUCGGAUCUGCACU	-2.15
AAGUCCUGUGCUACACAUCGUAUGUACCGAAUCGGAAAGGUUUUUUUGGUUUUUGGAAAGUAUUAUGUUACGCCGUUCGGAUCUGCACUU	-2.96

Series 3
Target: Interferon regulatory factor 7, full length, phosphomimetic (IRF7, Homo sapiens, UniProt Q92985, residues 1-503, S471D/S472D/S475D/S476D/S477D/S483D/S484D/S487D)
Technique: protein-binding microarray
Molecule type: double-stranded DNA, one strand shown
Matrix: in vitro
Concentration: 2200 nM top
Notes: 60-bp whole probe
With: salmon DNA 0.4 mg/ml
Relative to: random background probes
Reading: higher = stronger binding
All sequences stand within: GCCTAGCAC … GTCTTGATTCGCTTGACGCTGCTG
Target sequence (chain): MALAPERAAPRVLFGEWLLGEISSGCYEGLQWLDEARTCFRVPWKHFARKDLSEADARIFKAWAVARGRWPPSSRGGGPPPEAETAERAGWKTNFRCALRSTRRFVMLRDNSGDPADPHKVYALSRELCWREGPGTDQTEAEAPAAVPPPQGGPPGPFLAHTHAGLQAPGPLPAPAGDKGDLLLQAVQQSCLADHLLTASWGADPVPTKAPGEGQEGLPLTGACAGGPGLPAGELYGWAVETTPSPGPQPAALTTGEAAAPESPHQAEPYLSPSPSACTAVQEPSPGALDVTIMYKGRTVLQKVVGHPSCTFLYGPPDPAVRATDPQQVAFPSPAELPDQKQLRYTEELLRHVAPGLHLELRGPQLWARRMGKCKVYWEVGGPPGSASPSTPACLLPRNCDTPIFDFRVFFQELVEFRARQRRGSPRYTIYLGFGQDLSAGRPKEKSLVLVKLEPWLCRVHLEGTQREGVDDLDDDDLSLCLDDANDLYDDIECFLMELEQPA
Sequence	fitted relative affinity [z-score]
GACGGACTGGGGTATCGTGACGTGCTA	-0.693
TACGGACTGCTACTGCTGACGTGCTAG	-0.115
CTGCACTCCAGTCTGGGAGAGTGCTAG	-0.0577
GACGGTATCGTTCTCGGGACGTGCTAG	0.406
TTAGGTCTCCGTTTCGGTTAGTGCTAG	3.9
GAAGATATCAGACTGGAGACGTGCTAG	-0.403
CACGGACTGGACACTGGGGACGTGCTA	-0.825
TTAGGTTTCCTGCTCCTTTAGTGCTAG	1.57
GTGCCCGCTGCTTCCGGTGCGTGCTAG	0.416
TTAGGTATCGGTCGCGGTTAGTGCTAG	0.332
GACGGTCTCGGTCCCGGGACGTGCTAG	-0.271
TTAGGTATCGGGACCGGGTTAGTGCTA	-0.552
TAATTTCCATTTTCTAAATGCGTGCTA	4.73
TTCGGACTGGGGACTGGGTTAGTGCTA	-0.655
GACGCTTTCAGTATCGAGACGTGCTAG	2.8
TCAGACCTCGTCTCTATCACTGTGCTA	0.696
GACGGTTCCCTTTTCCTGAAGTGCTAG	2.57
ACCCGAGACACCGCCCCTTTGTGCTAG	-0.0905
TCAATGTTACATTTATAACTGTGCTAG	0.473

Series 4
Target: RNA binding protein fox-1 homolog 2, RRM domain, GST-SBP tag (RBFOX2, Homo sapiens, UniProt O43251-10, residues 100-194)
Technique: RNA Bind-n-Seq
Molecule type: RNA
Matrix: in vitro
Concentration: 365 nM
Notes: natural RNA segment, single round, ends assumed
Relative to: no-protein control
Reading: higher = stronger binding
All sequences stand within: GGGAGUUCUACAGUCCGACGAUC … UGGAAUUCUCGGGUGCCAA
Residues (chain): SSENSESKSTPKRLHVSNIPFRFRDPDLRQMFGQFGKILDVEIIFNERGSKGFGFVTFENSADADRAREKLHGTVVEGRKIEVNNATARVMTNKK
Sequence	RBNS enrichment (R)
GAGGAGGCCGAGCAGAAUACACCCCAGAGUUAGGGUUUGCGACUCCGCCUCCCUGGGACCUGGAUUGGGUCAGAUGCCUGUCCUUGGAGGGGACAAGGUUGACUGCUUAG	0.492
AUCUGCAGUCUUUUGUUAUUUCUGCAGGCUACACCCUUAAUUUGCAGAGGCCAUUUUGUUGUUUGUUUGAUGCUGAAGCUGUUGUUAAAAUGCCCCAAACUCCAAGGCAG	0.835
UUUCUUACCCAGGAGGCUUCUCUCAGUGGUUGGAAGUAAAACCAUCUCAAUGGGCCUAUACAGGAAAGGCUGUUAAUUUAAGUCUGUCGUUACUUUCUGGCGAAUUUAAC	0.328
CUCCCGGUCCUCCACGCGGACCACUAUGCUUCCCCACCGCAGCAGGCGACCGCGGCGCAGCUCCCACCCCGCCCUGCCCGGCCCCGAGCGCUUGCCCGAGGCCAGCGCGC	0.343
AAUGGAGCAGUGGCAAUCUCCCUGUUCCCCAACCUAACUCUUGGAACUUGGCCCUCUCCUUUCUUCCUGUUAAGUCUGAGAGGGAAGAGCUAGGCUAUGAAGGGAAGAUG	0.301
AGCAGAAACGGAAAUUGACCUCCCCGCCAUGUGUUUAAUAUUCCUCCUGCUUUUACUUUUGUCAUUUUCUUGAUAAUCGUAAGCCUUGAGAGUGUUUGUGAAAAAGUUUU	1.27
AAUCAGCCCCUAAUUUCUCCAUGUUUACACUUCAAUCUGCAGGCUUCUUAAAGUGACAGUAUCCCUUAACCUGCCACCAGUGUCCACCCUCCGGCCCCCGUCUUGUAAAA	0.534
GAGCAGAAUAGCAGUUCAGGGUCGCUUAAGGAGUCACCACAACUUAUGUGUUGGGUGACCACAAAAUCAACAGUAACUGAGAGAAACGAAUUCAUUUUGUAAAUAAUGUU	0.445
UUGCCCCAACUACUUACUAUUAUUUCGCUUUCGUUUUCCUGUAUUUUUUUCUUGCAUUGACAUUAUUGACGUUGAGGACCUCAUCAGAUCAAUUUAAAAGUGAGUGUGGA	0.896
AGGUUGGAAAAUGAACUACUCAAGAUAGUCACGAAAAUACUGAAAGUUUGAUUUUUCUUUCCAUAUUUGAAUUAAUUUUUUCUGUUUGACUGGAAGGGGUUUUUGUAUAA	0.626
CCAACCAUGGAGGAGACGCAAGGUGAAGACAUCGGGAAACAUCACACCGCACACGCUGUCGUCUUUUUUUCACAAGCUCAAUUGUUACUUUUCUCUGCUUCCUCAGCCCA	0.321
CUGCAACCUCCGCAUCCCGGGUUCAAGAGAUUCUGCCUCAGCCUCCAGAGUAGCUGGGACUACAAACGUGUGUCACCAGGCCCAGCUAAUUUUUGUAUUUUUAAUAAAGA	1.55

Series 5
Target: Histone acetyltransferase KAT6A, winged helix 1, GST fusion (KAT6A, Homo sapiens, UniProt Q92794, residues 1-85)
Technique: protein binding microarray
Molecule type: double-stranded DNA, one strand shown
Matrix: in vitro
Concentration: not given
Notes: 8-mer, flanks averaged, mean of 2 arrays, mostly near background
Relative to: not given
Reading: higher = stronger binding
Construct (chain): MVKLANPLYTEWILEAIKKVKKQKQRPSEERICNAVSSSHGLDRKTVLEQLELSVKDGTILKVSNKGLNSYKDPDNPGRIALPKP
Sequence	E-score
AACACAAA	-0.284
CAAACCTA	-0.122
ACACACGT	-0.0907
AGTTATTG	-0.188
CGTACTAA	0.126
CCTCGATC	-0.193
GAATCGGC	0.24
GTCGTAAC	-0.0142
ACGGACTA	0.0996
ATTGCGGG	0.301
GATTTTGC	-0.109
CAAGCTTC	-0.214
GTCCGTTA	0.114
CTAGCGCC	0.294
TAAAAACA	-0.0269
GCTCTTAA	-0.0907
CCACTGAG	-0.219
CCCGTGTC	0.271
AACATAGA	-0.081
ACAGCAAG	-0.0963

Series 6
Target: JUND, bZIP domain (human)
Technique: DHFR protein complementation
Matrix: yeast
Notes: single substitutions, most at no-binding floor
Relative to: wild-type JUN-FOS pair
Reading: higher = stronger binding
Starting sequence: JUN, bZIP domain (human); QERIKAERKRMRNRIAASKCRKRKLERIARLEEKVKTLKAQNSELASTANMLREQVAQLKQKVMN; partner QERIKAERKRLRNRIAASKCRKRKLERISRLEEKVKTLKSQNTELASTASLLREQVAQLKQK
Change	binding fitness [natural log]
Q41V	-0.903
K39A	-0.843
N42R	-1.17
T37I	-0.563
L59T	-0.807
I28E	-0.841
M51D	-0.552
A40Y	-1.11
A49T	-0.535
Q41T	-0.989
Q55M	-0.922
M51A	-0.462
A40V	-0.826
K36F	-1.09
T48A	-0.791
A29L	-0.999
A57G	-0.971
I28M	-0.829
I28R	-1.12
K34Q	-0.41
A29T	-0.859
T37G	-0.915
T48D	-0.895

Repeated from above (series 5):
Sequence	E-score
ACGGACTA	0.0996
ATTGCGGG	0.301
GATTTTGC	-0.109
CAAGCTTC	-0.214
GTCCGTTA	0.114
CTAGCGCC	0.294
TAAAAACA	-0.0269
GCTCTTAA	-0.0907
CCACTGAG	-0.219
CCCGTGTC	0.271
AACATAGA	-0.081
